Experimental data from different studies.
Every numbered part comes from another study and shows a few of its results, in no order. Several values in a cell are separate wells, animals, samples, runs or records.

Study 1
Cell line: HEK-293T
Read-out: pseudovirus infection
Method: FDA-approved drug library counter-screen
Organism: VSV pseudotyped with VSV-G
Concentration: 10 µM
Time: 16 h
Baseline: vehicle-treated
| Compound | GFP-positive cells |
| --- | --- |
| Cc1cn([C@H]2C[C@H](N=[N+]=[N-])[C@@H](CO)O2)c(=O)[nH]c1=O | 96.9% |
| CC1COc2c(N3CCN(C)CC3)c(F)cc3c(=O)c(C(=O)O)cn1c23 (centres unmarked) | 95.8% |
| CC(C)OC(=O)CCC/C=C\C[C@@H]1[C@@H](CC[C@@H](O)CCc2ccccc2)[C@H](O)C[C@@H]1O | 136% |
| N[C@@H](Cc1ccc(N(CCCl)CCCl)cc1)C(=O)O | 87% |
| Cc1ccc(-c2cc(C(F)(F)F)nn2-c2ccc(S(N)(=O)=O)cc2)cc1 | 116% |
| CC(=O)O[C@]1(C(C)=O)CC[C@H]2[C@@H]3CCC4=CC(=O)CCC4=C3[C@@H](c3ccc(N(C)C)cc3)C[C@@]21C | 123% |
| Cc1cccc(Nc2ccccc2C(=O)O)c1C | 73.8% |
| CCCCCCC(=O)O[C@H]1CC[C@H]2[C@@H]3CCC4=CC(=O)CC[C@]4(C)[C@H]3CC[C@]12C | 126% |
| O=c1oc2ccccc2c(O)c1Cc1c(O)c2ccccc2oc1=O | 65.8% |
| C#C[C@]1(O)CC[C@H]2[C@@H]3CCC4=C(CCC(=O)C4)[C@H]3CC[C@@]21C | 97.7% |
| Cc1[nH]cnc1CN1CCc2c(c3ccccc3n2C)C1=O | 96% |
| CCN(CC)C(=O)/C(C#N)=C/c1cc(O)c(O)c([N+](=O)[O-])c1 | 94.5% |
| c1ccc(CN(CC2=NCCN2)c2ccccc2)cc1 | 112% |
| CO/N=C(\C(=O)N[C@@H]1C(=O)N2C(C(=O)OCOC(=O)C(C)(C)C)=C(/C=C\c3scnc3C)CS[C@H]12)c1csc(N)n1 | 96.3% |
| CC(=O)O[C@H]1CC[C@@]2(C)C(=CC[C@@H]3[C@@H]2CC[C@]2(C)C(c4cccnc4)=CC[C@@H]32)C1 | 141% |
| NCCCC(N)(C(=O)O)C(F)F (centres unmarked) | 106% |
| CC(=O)O[C@H]1Cc2ccccc2N(C(N)=O)c2ccccc21 | 103% |

Study 2
SMILES: O=C1CCC(N2Cc3c(ccc4c3OCC43CCN(Cc4ccccc4)CC3)C2=O)C(=O)N1 (centres unmarked)
Medium: plasma
| host | route | dose | time | plasma concentration |
| --- | --- | --- | --- | --- |
| Sprague Dawley rat, male | intravenous | 1 mg/kg | 0.25 h | 339 ng/mL and 351 ng/mL |
| ICR mouse, male | oral | 3 mg/kg | 0.083 h | 65 ng/mL and 93.5 ng/mL |
| male ICR mice | intravenous | 1 mg/kg | 0.5 h | 177 ng/mL |
| Sprague Dawley rat, male | intravenous | 1 mg/kg | 0.083 h | 371 ng/mL and 379 ng/mL |
| male ICR mice | oral | 3 mg/kg | 0.25 h | 235 ng/mL |
| male ICR mice | oral | 3 mg/kg | 4 h | 75.7 ng/mL |
| ICR mouse, male | intravenous | 1 mg/kg | 4 h | 29.5 ng/mL and 16.9 ng/mL |
| ICR mouse, male | oral | 3 mg/kg | 4 h | 80.8 ng/mL and 146 ng/mL |

Study 3
Compound: CNC(=O)c1ccc(-c2cnn3ccc(C(=O)N(C)c4ccc(Cl)c(C(=O)OC)c4)cc23)cc1
Medium: plasma
Route: oral
| host | dose | time | notes | AUC |
| --- | --- | --- | --- | --- |
| beagle dog | 50 mg/kg/day | – | multiple doses | 120 ng·h/mL |
| beagle dog | 15 mg/kg/day | – | multiple doses | 67.8 ng·h/mL |
| Wistar rat, both sexes | 250 mg/kg/day | 2 weeks | GLP toxicology study | 10.3 ng·h/mL |
| Wistar rat, both sexes | 1000 mg/kg/day | 2 weeks | GLP toxicology study | 18.6 ng·h/mL |
| beagle dog | 1000 mg/kg/day | – | multiple doses | 634 ng·h/mL |
| beagle dog | 250 mg/kg/day | – | multiple doses | 248 ng·h/mL |
| female C57BL/6 mouse | 10 mg/kg | – | – | 0.019 µM·h |
| bovine | 20 mg/kg/day | – | – | 70.5 ng·h/mL |
| Wistar rat, both sexes | 50 mg/kg/day | 2 weeks | GLP toxicology study | 2.77 ng·h/mL |

Study 4
Cell line: HaCaT
Concentration: 100 µM
Time: 18 h
| SMILES | viability |
| --- | --- |
| C[C@]12CCC(=O)C(O)=C1CC[C@@H]1[C@@H]2CC[C@]2(C)C(=O)CC[C@@H]12 | 74.5% |
| O=c1[nH]c2ccccc2n1C1CCN(CCCC(c2ccc(F)cc2)c2ccc(F)cc2)CC1 | 18.1% |
| Nc1ccncc1 | 108% |
| COc1ccc2c(c1)[C@]13CCCC[C@@H]1[C@H](C2)N(C)CC3 | 98.1% |
| CC(C)C[C@H](CN)CC(=O)O | 113% |
| CC(C)(C)NCC(O)c1ccccc1Cl (centres unmarked) | 96.5% |
| COc1ccc(C(=O)N2CCCC2=O)cc1 | 107% |

Repeated from above (study 1):
| Compound | GFP-positive cells |
| --- | --- |
| Cc1ccc(-c2cc(C(F)(F)F)nn2-c2ccc(S(N)(=O)=O)cc2)cc1 | 116% |
| CC(=O)O[C@]1(C(C)=O)CC[C@H]2[C@@H]3CCC4=CC(=O)CCC4=C3[C@@H](c3ccc(N(C)C)cc3)C[C@@]21C | 123% |
| Cc1cccc(Nc2ccccc2C(=O)O)c1C | 73.8% |
| CCCCCCC(=O)O[C@H]1CC[C@H]2[C@@H]3CCC4=CC(=O)CC[C@]4(C)[C@H]3CC[C@]12C | 126% |
| O=c1oc2ccccc2c(O)c1Cc1c(O)c2ccccc2oc1=O | 65.8% |
